Published values gathered from unrelated publications.
Compare with care: the assays were run in different laboratories. Numbers after ± are the reported error.
MAOB: Amine oxidase [flavin-containing] B (MAOB, Homo sapiens, UniProt P27338)
UniProt P27338, sequence (whole entry, looked up): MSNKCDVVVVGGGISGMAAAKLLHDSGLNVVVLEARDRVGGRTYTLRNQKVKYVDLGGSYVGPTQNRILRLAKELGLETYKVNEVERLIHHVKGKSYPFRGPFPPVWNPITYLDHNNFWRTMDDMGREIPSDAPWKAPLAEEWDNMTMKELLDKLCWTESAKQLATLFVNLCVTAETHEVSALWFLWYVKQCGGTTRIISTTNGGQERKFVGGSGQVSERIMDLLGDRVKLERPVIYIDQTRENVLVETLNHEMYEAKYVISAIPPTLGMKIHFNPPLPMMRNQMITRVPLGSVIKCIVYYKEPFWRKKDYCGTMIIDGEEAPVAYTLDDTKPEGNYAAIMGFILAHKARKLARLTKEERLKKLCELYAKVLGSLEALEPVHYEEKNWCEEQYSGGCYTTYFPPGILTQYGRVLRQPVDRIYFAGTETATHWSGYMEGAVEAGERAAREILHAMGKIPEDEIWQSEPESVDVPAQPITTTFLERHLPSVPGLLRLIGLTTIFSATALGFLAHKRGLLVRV
RIPK1: Receptor-interacting serine/threonine-protein kinase 1 (RIPK1, Homo sapiens, UniProt Q13546)
UniProt Q13546, sequence (whole entry, looked up): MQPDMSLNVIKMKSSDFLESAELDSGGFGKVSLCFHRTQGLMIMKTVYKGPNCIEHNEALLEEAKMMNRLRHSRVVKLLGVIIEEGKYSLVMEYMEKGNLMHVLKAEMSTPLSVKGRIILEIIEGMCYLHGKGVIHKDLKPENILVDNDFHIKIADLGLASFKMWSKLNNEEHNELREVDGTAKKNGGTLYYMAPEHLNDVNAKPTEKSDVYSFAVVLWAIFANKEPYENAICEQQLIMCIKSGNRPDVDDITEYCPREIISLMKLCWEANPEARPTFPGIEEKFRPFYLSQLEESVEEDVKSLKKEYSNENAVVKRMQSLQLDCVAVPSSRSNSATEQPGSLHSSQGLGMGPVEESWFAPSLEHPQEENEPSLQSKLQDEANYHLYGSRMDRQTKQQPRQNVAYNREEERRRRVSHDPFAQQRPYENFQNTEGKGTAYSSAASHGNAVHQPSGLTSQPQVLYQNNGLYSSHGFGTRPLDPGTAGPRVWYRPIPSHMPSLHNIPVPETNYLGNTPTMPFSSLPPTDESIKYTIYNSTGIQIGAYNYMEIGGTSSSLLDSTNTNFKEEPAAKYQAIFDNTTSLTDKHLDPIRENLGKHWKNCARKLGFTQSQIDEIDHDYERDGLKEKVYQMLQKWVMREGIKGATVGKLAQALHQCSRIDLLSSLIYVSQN
UniProt P22071, sequence (whole entry, looked up): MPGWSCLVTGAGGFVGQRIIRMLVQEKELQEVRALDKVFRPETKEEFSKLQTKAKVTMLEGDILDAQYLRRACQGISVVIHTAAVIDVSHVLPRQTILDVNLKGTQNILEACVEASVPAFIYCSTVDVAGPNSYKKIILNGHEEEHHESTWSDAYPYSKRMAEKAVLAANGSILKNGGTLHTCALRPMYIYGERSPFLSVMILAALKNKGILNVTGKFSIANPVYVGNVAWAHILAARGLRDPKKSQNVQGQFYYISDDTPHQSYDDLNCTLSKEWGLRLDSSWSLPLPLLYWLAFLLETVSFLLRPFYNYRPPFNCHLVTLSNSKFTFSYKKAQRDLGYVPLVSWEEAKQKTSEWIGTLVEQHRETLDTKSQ
UniProt P23458, sequence (whole entry, looked up): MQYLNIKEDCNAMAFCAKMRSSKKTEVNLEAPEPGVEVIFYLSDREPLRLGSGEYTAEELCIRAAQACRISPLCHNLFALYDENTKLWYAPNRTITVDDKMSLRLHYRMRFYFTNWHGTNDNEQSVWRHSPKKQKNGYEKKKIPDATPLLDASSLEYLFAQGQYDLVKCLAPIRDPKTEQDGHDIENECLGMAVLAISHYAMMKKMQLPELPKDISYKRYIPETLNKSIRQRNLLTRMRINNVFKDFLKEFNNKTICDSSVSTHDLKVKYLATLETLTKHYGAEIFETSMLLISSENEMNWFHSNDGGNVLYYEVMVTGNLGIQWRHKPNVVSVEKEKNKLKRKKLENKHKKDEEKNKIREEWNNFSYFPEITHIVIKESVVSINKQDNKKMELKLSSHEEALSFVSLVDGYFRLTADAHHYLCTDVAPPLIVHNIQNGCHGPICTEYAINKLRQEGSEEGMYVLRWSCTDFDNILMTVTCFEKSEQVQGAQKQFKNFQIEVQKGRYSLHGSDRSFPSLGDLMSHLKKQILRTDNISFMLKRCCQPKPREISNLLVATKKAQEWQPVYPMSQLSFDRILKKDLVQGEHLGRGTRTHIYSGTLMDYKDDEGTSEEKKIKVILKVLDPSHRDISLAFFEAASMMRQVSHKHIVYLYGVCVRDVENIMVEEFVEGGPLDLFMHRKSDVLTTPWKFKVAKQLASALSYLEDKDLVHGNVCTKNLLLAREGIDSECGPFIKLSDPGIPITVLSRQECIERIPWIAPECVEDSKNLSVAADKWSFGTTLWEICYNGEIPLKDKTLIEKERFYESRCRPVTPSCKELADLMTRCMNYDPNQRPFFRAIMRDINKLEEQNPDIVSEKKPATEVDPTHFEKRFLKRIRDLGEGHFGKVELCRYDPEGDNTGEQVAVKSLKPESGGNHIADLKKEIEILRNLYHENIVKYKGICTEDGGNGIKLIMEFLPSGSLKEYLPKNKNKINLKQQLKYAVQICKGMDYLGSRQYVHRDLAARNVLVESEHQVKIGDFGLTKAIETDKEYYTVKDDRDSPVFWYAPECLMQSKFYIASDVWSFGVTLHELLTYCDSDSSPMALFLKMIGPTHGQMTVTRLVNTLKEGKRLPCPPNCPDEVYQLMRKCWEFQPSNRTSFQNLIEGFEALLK
UniProt Q15910, sequence (whole entry, looked up): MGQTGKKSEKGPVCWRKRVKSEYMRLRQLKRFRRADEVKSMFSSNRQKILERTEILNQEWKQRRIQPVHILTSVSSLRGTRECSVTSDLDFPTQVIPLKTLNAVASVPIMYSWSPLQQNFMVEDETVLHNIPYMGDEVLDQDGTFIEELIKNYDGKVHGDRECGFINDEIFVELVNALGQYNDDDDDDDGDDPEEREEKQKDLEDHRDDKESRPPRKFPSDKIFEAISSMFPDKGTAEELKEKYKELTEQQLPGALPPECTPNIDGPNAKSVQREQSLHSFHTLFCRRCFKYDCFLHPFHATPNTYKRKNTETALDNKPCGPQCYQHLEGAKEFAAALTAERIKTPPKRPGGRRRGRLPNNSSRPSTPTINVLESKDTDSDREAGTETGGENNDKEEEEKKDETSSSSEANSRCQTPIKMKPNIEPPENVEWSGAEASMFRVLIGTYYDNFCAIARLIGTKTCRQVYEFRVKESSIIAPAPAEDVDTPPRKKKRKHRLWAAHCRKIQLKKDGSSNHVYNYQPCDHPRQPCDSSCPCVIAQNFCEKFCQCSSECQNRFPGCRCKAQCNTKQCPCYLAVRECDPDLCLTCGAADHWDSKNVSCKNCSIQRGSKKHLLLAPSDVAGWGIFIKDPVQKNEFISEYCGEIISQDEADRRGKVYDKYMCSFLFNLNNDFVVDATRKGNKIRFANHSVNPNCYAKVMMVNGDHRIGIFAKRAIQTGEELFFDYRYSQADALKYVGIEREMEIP
UniProt Q8R431, sequence (whole entry, looked up): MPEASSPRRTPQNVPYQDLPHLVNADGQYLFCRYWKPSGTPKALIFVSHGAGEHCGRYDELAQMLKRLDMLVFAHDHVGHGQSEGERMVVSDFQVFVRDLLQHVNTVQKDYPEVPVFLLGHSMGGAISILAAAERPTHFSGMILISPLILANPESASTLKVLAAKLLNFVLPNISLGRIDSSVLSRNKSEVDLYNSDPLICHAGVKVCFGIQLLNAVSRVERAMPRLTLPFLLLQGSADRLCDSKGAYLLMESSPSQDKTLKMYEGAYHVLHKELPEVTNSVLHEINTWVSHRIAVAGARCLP
UniProt O75530, sequence (whole entry, looked up): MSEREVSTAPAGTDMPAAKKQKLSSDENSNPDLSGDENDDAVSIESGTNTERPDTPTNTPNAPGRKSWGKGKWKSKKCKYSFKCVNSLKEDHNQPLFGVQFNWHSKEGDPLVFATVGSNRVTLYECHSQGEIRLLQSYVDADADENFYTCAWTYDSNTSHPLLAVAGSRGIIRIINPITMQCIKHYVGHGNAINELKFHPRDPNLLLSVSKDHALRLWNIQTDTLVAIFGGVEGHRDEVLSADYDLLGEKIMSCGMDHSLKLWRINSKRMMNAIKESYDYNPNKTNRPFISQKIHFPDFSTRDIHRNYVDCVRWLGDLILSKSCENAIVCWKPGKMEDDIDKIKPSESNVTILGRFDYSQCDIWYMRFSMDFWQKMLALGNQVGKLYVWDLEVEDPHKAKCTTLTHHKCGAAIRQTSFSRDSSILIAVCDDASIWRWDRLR
UniProt P34914, sequence (whole entry, looked up): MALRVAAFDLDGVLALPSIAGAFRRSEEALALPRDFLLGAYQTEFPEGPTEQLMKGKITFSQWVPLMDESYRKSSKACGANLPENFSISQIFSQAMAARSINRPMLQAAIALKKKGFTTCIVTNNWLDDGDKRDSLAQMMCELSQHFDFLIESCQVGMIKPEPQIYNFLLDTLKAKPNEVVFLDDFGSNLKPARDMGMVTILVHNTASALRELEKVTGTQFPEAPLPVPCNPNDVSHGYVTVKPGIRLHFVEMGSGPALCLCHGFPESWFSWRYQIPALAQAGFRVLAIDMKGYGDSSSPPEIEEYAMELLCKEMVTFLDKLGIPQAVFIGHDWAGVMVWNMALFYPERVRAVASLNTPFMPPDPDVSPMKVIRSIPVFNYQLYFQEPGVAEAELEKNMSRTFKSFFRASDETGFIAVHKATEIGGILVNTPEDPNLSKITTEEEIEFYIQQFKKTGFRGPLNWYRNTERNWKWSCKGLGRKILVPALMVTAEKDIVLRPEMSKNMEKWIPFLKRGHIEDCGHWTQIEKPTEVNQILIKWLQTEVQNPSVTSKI

Cc1ccc2c(c1)/C(=N/N=C/c1ccc(OCc3cccc(F)c3)cc1)C(=O)N2
remaining activity (MAOB; enzyme activity, inhibitor; 10 µM): 30.3%

CC1(C)CCN(Cc2ccc(C(=O)NC[C@]3(O)CCCN(c4cc(NCc5ccccc5)ncn4)C3)c(O)c2)CC1
remaining activity (Tyrosine-protein kinase JAK1 (JAK1, Homo sapiens, UniProt P23458); enzyme activity, inhibitor, radiometric; 10 µM): 101%

Cc1c(O)cc(O)c2c1OC(c1ccc(O)cc1)CC2=O (stereo not drawn)
remaining activity (Polyunsaturated fatty acid 5-lipoxygenase (ALOX5, Homo sapiens, UniProt P09917); product formation; activated human PMNL; 10 µM, with: A23187 plus arachidonic acid; reference: control): 65.7 ± 5.7%

COc1cc(/C=C/C(=O)CC(=O)CCc2ccc(O)c(OC)c2)ccc1O
remaining activity (Hsd3b1 (Rattus norvegicus, UniProt P22071); inhibitor; rat testicular microsomes; 100 µM, with: pregnenolone substrate; reference: DMSO): ~50%

O=C(Nc1ccc(OC(F)(F)F)cc1)N1CCC(Cc2cccc(Oc3ccc(C(F)(F)F)cn3)c2)CC1
remaining activity (Bifunctional epoxide hydrolase 2 (Ephx2, Mus musculus, UniProt P34914); mouse, brain; ip, 10 mg/kg, 4 h; reference: vehicle): 61 ± 12%

Cc1ccc2c(c1)/C(=N/N=C/c1ccc(OCc3ccccc3)cc1)C(=O)N2
remaining activity (MAOB; enzyme activity, inhibitor; 10 µM): 40.4%

CC1(C)COCN1C(=O)n1nnc2c(F)cc(F)cc21
remaining activity (Monoglyceride lipase (Rattus norvegicus, UniProt Q8R431); inhibitor; rat cerebellum cytosol; 100 µM; reference: control): 68 ± 3%

CC(C)NC(=O)N1CC=C(c2cc3c(Nc4cc5ncsc5cc4F)ncnc3s2)CC1
remaining activity (RIPK1; enzyme activity; 1 µM; reference: untreated): 100 ± 4%

COc1ccc2c(c1)/C(=N/N=C/c1cccc(OCc3ccccc3)c1)C(=O)N2
remaining activity (MAOB; enzyme activity, inhibitor; 10 µM): 48.4%

CCC(=O)NC1CC=C(c2cc3c(Nc4cc5ncsc5cc4F)ncnc3s2)CC1 (racemic)
remaining activity (RIPK1; enzyme activity; 1 µM; reference: untreated): 105 ± 3%

O=C1Nc2ccc(Br)cc2/C1=N/N=C/c1ccc(OCc2ccccc2)cc1
remaining activity (MAOB; enzyme activity, inhibitor; 10 µM): 64.9%

CC(C)C(=O)N1CCC=C(c2cc3c(Nc4cc5ncsc5cc4F)ncnc3s2)C1
remaining activity (RIPK1; enzyme activity; 1 µM; reference: untreated): 101 ± 4%

COc1ccc2c(c1)/C(=N/N=C/c1ccc(OCc3cccc(F)c3)cc1)C(=O)N2
remaining activity (MAOB; enzyme activity, inhibitor; 10 µM): 50%

O=C(C1CC1)N1CCC=C(c2cc3c(Nc4cc5ncsc5cc4F)ncnc3s2)C1
remaining activity (RIPK1; enzyme activity; 1 µM; reference: untreated): 95 ± 2%

C[C@H](NC(=O)[C@H](C)NC(=O)[C@@H](N)CCCCN)C(=O)N[C@@H](CCCNC(=N)N)C(=O)N[C@@H](CCCC[N+](C)(C)C)C(=O)N[C@@H](CO)C(=O)N[C@@H](C)C(=O)N1CCC[C@H]1C(=O)O
remaining activity (Histone-lysine N-methyltransferase EZH2/Polycomb protein EED, with SUZ12 (EED/EZH2, Homo sapiens, UniProt O75530+Q15910); PRC2 methyltransferase activity, [3H]-SAM scintillation proximity; concentration not given, with: 50 µM histone H3 peptide (21-44)): 577 ± 1.9%

Some of these lines once more:
Cc1ccc2c(c1)/C(=N/N=C/c1ccc(OCc3cccc(F)c3)cc1)C(=O)N2
remaining activity (MAOB; enzyme activity, inhibitor; 10 µM): 30.3%
